Earlier results, collected from citations in different studies.
Each line is one published result; not all experiments were run side by side. Values joined by “and” are separate records of one study, mostly repeats; a detail may differ. ± gives the spread as reported. ≈ marks a conversion by molar mass, not a printed value.

Structure (SMILES)	assay	test system	setting	scale	endpoint	value
Cn1cc2cc(C(F)(F)c3nnc4ccc(-c5cnn(C6CC6)c5)nn34)c(F)cc2n1		mouse, MKN-45 and patient-derived xenografts	dose not given, no deaths or major weight loss		tolerability	not toxic
Cc1cccc2c1ccc1cc(C(C)C)ccc12	substrate	human liver microsomes			Km	0.002 µM
COc1cc2c(Nc3ccc(Cl)c(Cl)c3F)ncnc2cc1OC[C@@H]1C[C@@H]2CN(C)C[C@@H]2C1		mouse	oral, dosed 1-5 days per week		MTD	70 mg/kg
N#C[C@@]1(c2ccc3c(N)ncnn23)O[C@H](CO)[C@@H](O)[C@H]1O		human	intravenous infusion, 0.5 h infusion		Tmax	0.0625 to 0.0833 days
CN1CCN(C2=Nc3ccccc3Oc3ccc(Cl)cc32)CC1		human, plasma	concentration not given, range of reported values		Cmax	20 to 411 nM
O=C1CCc2ccc(OCCCCN3CCN(c4cccc(Cl)c4Cl)CC3)cc2N1		dog			fraction unbound	0.001
CC(=O)C[C@@H](c1ccccc1)c1c(O)c2ccccc2oc1=O		human, fasted	oral, 15 mg, single dose, with: racemic warfarin 30 mg		Cmax, mean	1700 ng/mL
O=S(=O)(O)C(F)(F)C(F)(F)C(F)(F)C(F)(F)C(F)(F)C(F)(F)C(F)(F)C(F)(F)F	literature value		vapour phase		pKa	< 0.3
CNCCCN1c2ccccc2CCc2ccccc21		mouse			fraction unbound	0.011
C=C[C@@H]1C[C@]1(NC(=O)[C@@H]1C[C@@H]2CN1C(=O)[C@H](C(C)(C)C)NC(=O)O[C@@H]1C[C@H]1CCCCCc1nc3ccc(OC)cc3nc1O2)C(=O)NS(=O)(=O)C1CC1		bile duct-cannulated rat	oral, time not given		biliary recovery	28%
Nc1ccncc1		plasma	concentration not given, total, literature data		Cmax	198 nM
CN(C)C(=O)c1cc2cnc(Nc3ccc(N4CCNCC4)cn3)nc2n1C1CCCC1	refers to: midazolam	human	400 mg once daily, 8 days	reference: midazolam alone	increase in Cmax	2.1 fold
C1=Cc2cccc3cccc1c23	substrate	human liver microsomes			Km	1.35 µM
O=C(CCCCC1SCC2NC(=O)NC21)Nc1cccc([211At])c1 (stereo not shown)		human serum	12 h		intact compound remaining	74%
CCN(CCO)CCCC(C)Nc1ccnc2cc(Cl)ccc12 (stereo not shown)		rhesus macaque	intraperitoneal, 50 mg/kg		lung concentration	30 µmol/kg
CCOC(=O)C1=C(CN2CCOCC2)NC(c2nccs2)=NC1c1ccc(F)cc1Br (stereo not shown)			pH 7		aqueous solubility	< 1.19 µg/mL
c1cc2ccc3cccc4ccc(c1)c2c34		fish	dose not given, experimental mean		bioconcentration factor	169000 L/kg
N.N.[Cl][Pt][Cl]	refers to: total platinum	mouse, plasma	intravenous, 2.6 mg Pt/kg		C0	6.53 µg Pt/mL
O=C(O)C(F)(F)C(F)(F)C(F)(F)C(F)(F)C(F)(F)C(F)(F)C(F)(F)F	ESI-MS, literature value				pKa	< 1
CCN(C)C(=O)Oc1cccc([C@H](C)N(C)C)c1		mouse			fraction unbound	0.341
O=C(O)C(F)(F)C(F)(F)C(F)(F)C(F)(F)C(F)(F)F		human			half-life	32 days
CC(C)c1nc(CN(C)C(=O)N[C@H](C(=O)N[C@@H](Cc2ccccc2)C[C@H](O)[C@H](Cc2ccccc2)NC(=O)OCc2cncs2)C(C)C)cs1		human			blood-to-plasma ratio	0.14
CC(C)[C@H](N)C(=O)NCCCS(=O)(=O)O		human, plasma	265 mg twice daily		AUC(0-12h)	11200 ng·h/mL
N#CCNC(=O)c1ccc(-c2ccnc(Nc3ccc(N4CCOCC4=O)cc3)n2)cc1		severe hepatic impairment	dose not given	reference: matched healthy participants	AUC(0-inf) decrease	48%
O=S(=O)(O)C(F)(F)C(F)(F)C(F)(F)C(F)(F)C(F)(F)C(F)(F)F		human			half-life	3600 days

Structure (SMILES)	assay	test system	setting	scale	endpoint	value
CC(C)CNC(=O)[C@@H](N)Cc1ccc(OP2(=O)CO[C@@H](Cn3cnc4c(N)ncnc43)CO2)cc1 (stereo partly shown)		PBS	pH 6.5, Sp isomer		half-life	0.0847 days
CC(CC(c1ccccc1)c1ccccc1)NC(C)(C)C (stereo not shown)		dog			fraction unbound	0.148
CCN(C)C(=O)Oc1cccc([C@H](C)N(C)C)c1		plasma	concentration not given, total concentration		Cmax	99.9 nM
O=S(=O)(O)C(F)(F)C(F)(F)C(F)(F)C(F)(F)F		human			half-life	26 days
Cc1c(C(=O)NN2CCCCC2)nn(-c2ccc(Cl)cc2Cl)c1-c1ccc(Cl)cc1		human			fraction unbound	0.0005
Cc1ccc2cc(C)ccc2c1		zebrafish embryos, whole embryo	181.2 ng/well, 48 hpf, single exposure		amount in tissue	0.935 ng/well and 0.963 ng/well and 1.05 ng/well
ClC1=C(Cl)C2(Cl)C3C4CC(C5OC45)C3C1(Cl)C2(Cl)Cl (stereo not shown)			25 °C		water solubility	0.2 µg/mL (≈ 0.525 µM)
Cc1nc2n(c(=O)c1CCN1CCC(c3noc4cc(F)ccc34)CC1)CCCC2		mouse			fraction unbound	0.039
CC[C@H](C)C[C@H](C)CCCCCCCCC(=O)N[C@H]1C[C@@H](O)[C@@H](NCCN)NC(=O)[C@@H]2[C@@H](O)CCN2C(=O)[C@H]([C@H](O)CCN)NC(=O)[C@H]([C@H](O)[C@@H](O)c2ccc(O)cc2)NC(=O)[C@@H]2C[C@@H](O)CN2C(=O)[C@H]([C@@H](C)O)NC1=O		human	with: radiolabelled compound		fraction excreted in faeces	35%
Cc1ccnc(-c2cc(C)ccn2)c1.[Ru+2].c1ccc(-c2ccnc3c2ccc2c(-c4ccccc4)ccnc23)cc1.c1ccc(-c2ccnc3c2ccc2c(-c4ccccc4)ccnc23)cc1		acetonitrile			singlet oxygen quantum yield	0.61
Clc1cc2c(cc1Cl)Oc1cc(Cl)c(Cl)cc1O2		female C57BL/6 mouse	every 28 days for 4 days		lowest dose with hepatic fibrosis	0.03 mg/kg
CC(C)(C)NCC(O)COc1ccc(NC(=O)NC2CCCCC2)cc1 (stereo not shown)		dog			fraction unbound	0.247
COC(=O)[C@H]1[C@@H](c2ccc(C)cc2)C[C@@H]2CC[C@H]1N2C/C=C/C[18F]	PET	rat, striatum	dose not given, 24 min		tissue uptake	1.44 %ID/g and 1.93 %ID/g and 1.95 %ID/g and 2.61 %ID/g and 2.17 %ID/g
O=S(=O)(O)C(F)(F)C(F)(F)C(F)(F)C(F)(F)C(F)(F)C(F)(F)C(F)(F)C(F)(F)F		plasma			plasma fraction unbound	0.0049
c1ccc2c(c1)cc1ccc3cccc4c5ccccc5c2c1c34		zebrafish embryos, whole embryo	163 ng/well, 48 hpf, single exposure		amount in tissue	0.216 ng/well and 0.284 ng/well and 0.219 ng/well
CN[C@H](CC(C)C)C(=O)N[C@H]1C(=O)N[C@@H](CC(N)=O)C(=O)N[C@H]2C(=O)N[C@H]3C(=O)N[C@H](C(=O)N[C@H](C(=O)O)c4cc(O)cc(O)c4-c4cc3ccc4O)[C@H](O)c3ccc(c(Cl)c3)Oc3cc2cc(c3O[C@@H]2O[C@H](CO)[C@@H](O)[C@H](O)[C@H]2O[C@H]2C[C@](C)(N)[C@H](O)[C@H](C)O2)Oc2ccc(cc2Cl)[C@H]1O		human	oral		oral bioavailability	< 1%
CC(C)c1ccc(NC(=O)N(C)C)cc1					log Kow	2.87
Cc1ccc2ccccc2c1		zebrafish embryos, whole embryo	355.5 ng/well, 48 hpf, single exposure		amount in tissue	0.664 ng/well and 0.625 ng/well and 0.662 ng/well
NC1CCCCC1N.O=C([O-])C(=O)[O-].[Pt+2] (stereo not shown)		mouse	intravenous		MTD	4 mg/kg
c1ccc2c(c1)cc1ccc3cccc4ccc2c1c34		zebrafish embryos, whole embryo	630.75 ng/well, 48 hpf, single exposure		amount in tissue	0.521 ng/well and 0.853 ng/well and 0.744 ng/well and 0.45 ng/well
CCCCCOc1ccc(-c2ccc(-c3ccc(C(=O)N[C@H]4C[C@@H](O)[C@@H](O)NC(=O)[C@@H]5[C@@H](O)[C@@H](C)CN5C(=O)[C@H]([C@@H](C)O)NC(=O)[C@H]([C@H](O)[C@@H](O)c5ccc(O)cc5)NC(=O)[C@@H]5C[C@@H](O)CN5C(=O)[C@H]([C@@H](C)O)NC4=O)cc3)cc2)cc1		healthy volunteers	200 mg day 4 then 100 mg days 5-13		volume of distribution	35.2 ± 14.4 L
N.N.[Cl][Pt][Cl]		mouse			maximum tolerated dose	~5 mg/kg
Nc1ncnc2c1ncn2C[C@@H](CO)OCP(=O)(O)O		mouse	oral		oral bioavailability	< 5%
CN(C)CCCN1c2ccccc2Sc2ccc(Cl)cc21		dog			fraction unbound	0.003

Excerpt of the above:
Structure (SMILES)	assay	test system	setting	scale	endpoint	value
CNCCCN1c2ccccc2CCc2ccccc21		mouse			fraction unbound	0.011
C=C[C@@H]1C[C@]1(NC(=O)[C@@H]1C[C@@H]2CN1C(=O)[C@H](C(C)(C)C)NC(=O)O[C@@H]1C[C@H]1CCCCCc1nc3ccc(OC)cc3nc1O2)C(=O)NS(=O)(=O)C1CC1		bile duct-cannulated rat	oral, time not given		biliary recovery	28%
Nc1ccncc1		plasma	concentration not given, total, literature data		Cmax	198 nM
CN(C)C(=O)c1cc2cnc(Nc3ccc(N4CCNCC4)cn3)nc2n1C1CCCC1	refers to: midazolam	human	400 mg once daily, 8 days	reference: midazolam alone	increase in Cmax	2.1 fold
